# Results gathered from unrelated publications.
# A part holds a random share of what one study measured.

# Sample 1
# Target: RING finger protein unkempt homolog, zinc fingers 1-6, GST-SBP tag (UNK, Homo sapiens, UniProt Q9C0B0, residues 30-357)
# Method: RNA Bind-n-Seq
# Form: RNA
# Sample: in vitro
# Concentration: not given
# Setting: RNA with constant flanks, human-mouse chimeric sites, ends assumed
# Relative to: input RNA pool
# Reading: higher = stronger binding
# All sequences stand within: GGGAGUUCUACAGUCCGACGAUC … CAACAGAGGAUUGAGCAUCA
# Construct (chain): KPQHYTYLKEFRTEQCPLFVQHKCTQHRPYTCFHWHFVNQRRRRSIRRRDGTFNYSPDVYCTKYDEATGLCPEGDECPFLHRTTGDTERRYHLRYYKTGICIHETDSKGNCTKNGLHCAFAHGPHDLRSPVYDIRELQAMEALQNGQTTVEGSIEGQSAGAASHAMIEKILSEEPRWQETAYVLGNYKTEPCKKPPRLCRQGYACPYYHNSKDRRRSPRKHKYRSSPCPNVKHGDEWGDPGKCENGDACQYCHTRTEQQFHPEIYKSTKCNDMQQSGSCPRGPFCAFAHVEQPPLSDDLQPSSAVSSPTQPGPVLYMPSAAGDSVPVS
Oligonucleotide,bound/input enrichment [ratio]
UCCCAAAUCCAGCAGCUAGAAGGAGCCAAUUGUUUGUCACUCCACACACAGGGAAGGCGAUAACAUUGUAAAUUGGUUUACAUUUUUUCCCCCUGUGGAUUUUUCUAGAGGUCAUAGUGC,0.32
GAUAAGAAAAGCUUGUUGGAGACCCGCUUGCAUGUCACUGGUAGAGAACUGAGGUCCAAAAUAGCUGAAACUUUCGGAUUUCAAGAAAAUUACAUCAAGAUCGUAAUAAAUAAGAAACAG,0.443
CCUGCUCAGAUCACCAUGAAAGUAAUCCAAGGCCUAUACAGUGGGGUCACCACAGUGGAACUGGACACCCUGGCUGCUGAGACAGCCGCGACCUUGACCACGAAGCACCCUGACUAUGCC,0.124
AGGAGGAGGUUAAAGGGUGAGAGUGGGGUGGAAGACUGUGUCAUGGCUCUGGAGACAUUGUUUAGUGUUCUGCUUUCUCUGUGCAGACUGAUGGCCCCUUACACGCCCUUUCUGACUGAG,0.104
ACUCUUGACUCUUUCCAUCCUCUUCCUUUCCCUCUUGAUAUUCAAGGCCAUGAAUCCCAAAAUAACAGUCUUAGUGGGAGGCUAGCAAACAGAGGUGGGUGCCAUCCACCCCAGUGUCUC,0.392
CACACACUCUUCUGCGGGACCCUCAUCCUGCAGGCCCGAGCCUACGUGGGACCGCACGUCCUGGCAGUGGUGACCCGCACAGGGUUCUGCACGGCAAAAGGGGGCCUGGUGAGCUCCAUC,0.0894
AACUUCGUGCAUCGGUUUCCCUUUGUAGCUGUUUCAAUUGGCUUUGCUGUAAAUAAAGAGAUGGAGUUUGGAAUUGUGUACAGCUGUGUGGAAGAUAAGAUGUACACCGGCAGGAAAGGG,0.411
CAGCUGCAGACAGAAAAGGAUGAGAAGGAGCUGUAUAAGGUACAUUUGAAGAAUACAGAAAUAGAAAAUACGAAGCUUGUGUCAGAGGUCCAGACUUUAAAGAAUUUAGAUGGGAACAAA,2.9
CCAAUUGUGGAGCAGUACUUGAAGACAAAGAAAAAUUCUAAUAAUUUAAUCAUCAAGUACAUUAGCUGCCGCCUGCUGACAUUUGUGGUUAUACUGUUAGCGUGUAUCUACCUGGGCUAU,0.348
UUGAAAACAAACUGAUUUAAGUUUGAGUAUCACAAUGUUAGCUUUCUAAUUCCAUAAAAGUACUUGGUUUUUACAGUUUAUAAUCUGCAAUCCAUCAAGCGCCAUUUGUAAAGAGCAACU,0.194
AUCAAAUACUUUGGGGAUAUUAUUAGCGUGGGACAGAGACUGUUGCAAGGAGCUCGGAUCUUAGGGAUUCCUGUUAUCAUAACGGAACAAUACCCCAAAGGACUUGGCAGCACCGUUCAA,0.26

# Sample 2
# Target: Ras GTPase-activating protein-binding protein 1, full length (G3BP1, Homo sapiens, UniProt Q13283)
# UniProt Q13283, sequence (whole entry, looked up): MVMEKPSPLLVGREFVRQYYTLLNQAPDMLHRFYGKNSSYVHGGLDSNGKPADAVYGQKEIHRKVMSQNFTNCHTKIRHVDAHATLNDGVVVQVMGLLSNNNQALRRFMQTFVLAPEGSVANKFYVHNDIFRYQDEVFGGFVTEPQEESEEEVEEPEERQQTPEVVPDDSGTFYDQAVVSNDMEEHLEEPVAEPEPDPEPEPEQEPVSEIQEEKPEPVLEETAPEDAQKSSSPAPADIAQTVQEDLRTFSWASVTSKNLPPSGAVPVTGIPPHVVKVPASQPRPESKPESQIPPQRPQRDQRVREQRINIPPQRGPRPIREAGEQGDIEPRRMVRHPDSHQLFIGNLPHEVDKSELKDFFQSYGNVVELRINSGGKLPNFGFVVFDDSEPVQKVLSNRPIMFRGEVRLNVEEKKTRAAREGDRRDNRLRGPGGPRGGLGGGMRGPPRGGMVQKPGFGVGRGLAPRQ
# Method: RNA Bind-n-Seq
# Form: RNA
# Sample: in vitro
# Concentration: 200 nM
# Setting: whole 134-nt RNA, ends assumed
# With: 150 mM KCl
# Relative to: input library
# Reading: higher = stronger binding
# All sequences stand within: GGGAGUUCUACAGUCCGACGAUC … UGGAAUUCUCGGGUGUCAAGG
Oligonucleotide,log2 enrichment
GCAGGAAGUAAAAACAAAUGGAAAUGCUUCGGAUAGUGGCAGGGGUGGGGGUUGCUAAGGAAAGGGUGGGAUGGGAGUGUGUAAAGAGUU,0.812
ACCAUGCAGGUGGGCAUCUUUGGGAAGUGGGGCAAGGGGGGGAUAGGGAGGGGGGUAACACUAUGGGAACAGGUGGUCCCAGGUCGUUUC,1.16
GCGGGAAGUAAAAACAAAUGGAAAUGCUUCGGAUAGUGGCAGGGGUGGGGGUUGCUAAGGAAAGGGUGGGAUGGGAGUGGGUAAAGAGUU,1.22
ACCAUGCACGUGGGCAUCUUUGGGAAGUGGGGCAAGGGGGGGAUAGGGAGGGGGGUAACACUUUGGGAACAGGUGGUCCCAGGUCGUUUC,1.11
CCUGUGCUACACAUCGUAUGUACCGAAUCGGGGUUUGGGGAAAAAAAGGGGUUUUUGGGGAAAGUAUUAUGUUACGCCGUUCGGAUCUGC,0.212
UCAAGUCCUGUGCUACACAUCGUAUGUACCGAAUCGGGCCCGGGCCCGGCCCGGAAAGUAUUAUGUUACGCCGUUCGGAUCUGCACUUCC,-0.824
CCUCAAGUCCUGUGCUACACAUCGUAUGUACCGAAUCGGUUGGGUUGGUUGGAAAGUAUUAUGUUACGCCGUUCGGAUCUGCACUUCCAG,0.18
UGGCCCUGGUGGCAUGCGGGGAGGAAGAGGUGGCCUCAUGGAUCGUGGUCGUCCCGGUGGAAUGUUCAGAGGUGGCCGUGGUGGAGACAG,0.155
AAGUCCUGUGCUACACAUCGUAUGUACCGAAUCGGGUGGGAAAGGGAAAAAAAGGGAAAGUAUUAUGUUACGCCGUUCGGAUCUGCACUU,-0.134
AGUCCUGUGCUACACAUCGUAUGUACCGAAUCGGGGAAAGGGGAAAAAGGGGUGGGGAAAGUAUUAUGUUACGCCGUUCGGAUCUGCACU,0.445

# Sample 3
# Target: Interferon regulatory factor 5, full length, phosphomimetic (IRF5, Homo sapiens, UniProt Q13568-2, residues 1-514, K96S/S451D/S453D/S456D/S462D)
# Method: protein-binding microarray
# Form: double-stranded DNA, one strand shown
# Sample: in vitro
# Concentration: 250 nM
# Setting: 60-bp whole probe
# With: salmon DNA 0.4 mg/ml
# Relative to: random background probes
# Reading: higher = stronger binding
# All sequences stand within: GCCTAGCAC … GTCTTGATTCGCTTGACGCTGCTG
Oligonucleotide,log fluorescence
TTAGGTCTCGGCATCGGTTAGTGCTAG,0.172 z-score
GACGGTATCCTTCTCCTGAGGTGCTAG,0.0142 z-score
TTATGACTGGGGACTGGGTTAGTGCTA,-0.0872 z-score
GACGATCTGGGGTATCGAGACGTGCTA,0.0463 z-score
TTAGTTTTCGGGACTGGATTAGTGCTA,4.18 z-score
CTATCTCTGTTTTTGCTTTCGTGCTAG,3.47 z-score
TCAGTTTTCTCTATTGCACTGTGCTAG,1.82 z-score
ATTGCTTCCTCTTTCTCTGCGTGCTAG,1.14 z-score
GAGGATATCAGTCTCGAGACGTGCTAG,0.496 z-score
GACGATTTCGGGTAACGAGACGTGCTA,4.36 z-score
TTAGGACTTCTTATCCTTTAGTGCTAG,-0.0361 z-score
GACGGATTGGGGACTGGGGACGTGCTA,-0.542 z-score
TCACCTCTCATTCCAATACTGTGCTAG,0.573 z-score
CCCTGTTTCTACTGTCTGTTTGTGCTA,1.73 z-score
TCAGCTTTCTTTTTGCAACTGTGCTAG,1.91 z-score
GACGGTCTCGGTATCGGAACGTGCTAG,1.65 z-score
GACGGTATCGACTATCGGGAGGTGCTA,3.74 z-score
GACGGACTGGGACTGCGGACGTGCTAG,-0.642 z-score
GACGGAGTGGGGACTGGGGACGTGCTA,-0.477 z-score
TTAGGTTTGGGGTATCGGTTAGTGCTA,2.36 z-score
GACGGGATCGACTTTCGGGACGTGCTA,5.26 z-score
TCAGTTCTCAGACTGGGACTGTGCTAG,-0.501 z-score
TCATAGCTTCCTTTCGCACTGTGCTAG,1.93 z-score

# Sample 4
# Target: RNA binding protein fox-1 homolog 2, RRM domain, GST-SBP tag (RBFOX2, Homo sapiens, UniProt O43251-10, residues 100-194)
# Method: RNA Bind-n-Seq
# Form: RNA
# Sample: in vitro
# Concentration: 365 nM
# Setting: natural RNA segment, single round, ends assumed
# Relative to: no-protein control
# Reading: higher = stronger binding
# All sequences stand within: GGGAGUUCUACAGUCCGACGAUC … UGGAAUUCUCGGGUGCCAA
# Construct (chain): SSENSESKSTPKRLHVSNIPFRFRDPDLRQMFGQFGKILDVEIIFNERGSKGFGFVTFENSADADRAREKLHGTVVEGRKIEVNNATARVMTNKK
Oligonucleotide,RBNS enrichment (R)
UCAUCCCAAAUGACAAGGAAUGUGGCUCAGAGAAGGGUUUUUCUUUUUUGACCUUUCUUCUCUCAACAGGAACCUGCCUGAGGACACCCUUCUAGAGCAAGGAAUUGACU,0.341
ACUGGAACUUGAACUGAUUCACAUCUCAUUUUUCCGUAAAAAUGAUUUCAGUAGCACAAGUUAUUUAAAUCUGUUUUUCUAACUGGGGGAAAAGAUUCCCACCCAAUUCA,0.227
UUAAACAGCGUUUCUUCAUUGCCUGUGUAUGAGAAAAACUUGGAAGUGUGCCUGUGUAUAUAACUCUGUAAAGACACUGAAAAUUAUACUAACUUAUUUAUGUUAAAAAG,4.78
AUUAUUUCAGAGGUCACUGAAGACUGUGAUUACAUGCACCUGCCUUAGAAGGUAGGAUUUUCUUCCCAGGGACCUCCUAUCACCCUACCCUGCUUCUUGAGGUCCCUGGA,0.688
UGCUUCAUCGUCUUGGCUGAGAAAGGGAAAAGACACACAAGUCGCGUGGGUUGGAGAAGCCAGAGCCAUUCCACCUCCCCUCCCCCAGCAUCUCUCAGAGAUGUGAAGCC,0.297
GGCAAAUUCUUGCUAUGUAACUCAGGCUGGCAUCAAAGUCUUAGUCUUUCUGUUGCUGGUUAUUGAGUGUUGAAAUUAUUGACCAAAAACCUUUCUUUAGUGAAUGUCAA,0.485
CCUAGAGGAGACAGCCUGUCUCUCCUUGUUGCCCCCAAAGCCCAUGCCCUGCCGUGGUGGCAGCUGGGGCUGUGGAUGGGAGGGGUCCCCAACAUGGAUGUGUUGCCCCU,1.13
UGCUAAUAAUGUCUUGUUUGGGUCUCCCAAACCCUACCUCUCAACUCCCUUAAGAGUAUCACUGUUCUGAAGCUAAAAUGCUUCAGUCUCAAAUUUAGGGGCAAAGUGGA,0.457
GGCGCCGGCUUCGUGGCUCUGAGGUGUAACGGGGGUGGGCUCCCUCCCUCGGAGGACAUCGUCUGUGUCCAGGUCAGAAAGUGGCCCAGGAAGGGGGCAGUUUCUGUCGC,0.424
GCUUGAAAAUUGAUAUCCUGUGGUGCUAAAGUACAGUAGAAAGAGAGGAGAAGUGUAUACAUGUUUUAUUUUAAAUUGUACGAAAGGGGAAUUUAAAAAAUAUGUAACUG,0.471
UCUUCUAUACCCUUCUACCUGCCCUUAGAUCUCCAUUUUUAUCAAAUAGUACAUUGCAUUUUGAAGUUUUGGGUUUUGUCCUUCAUCUUUCCCUUUCCCUUCAAAUCUUU,0.684
CACGGUUUGCUGAUCUCAAACGGGCACUUAAAGCCUGGUAUGGGUGUGUGAUUUAGUGACUGAGCCUGCCCUUCUGUUUGUCAGUUACGUUUCUACCCUUCAAUUAGCUG,3.08

# For quick reference, copied from above (sample 1):
Oligonucleotide,bound/input enrichment [ratio]
CACACACUCUUCUGCGGGACCCUCAUCCUGCAGGCCCGAGCCUACGUGGGACCGCACGUCCUGGCAGUGGUGACCCGCACAGGGUUCUGCACGGCAAAAGGGGGCCUGGUGAGCUCCAUC,0.0894
UUGAAAACAAACUGAUUUAAGUUUGAGUAUCACAAUGUUAGCUUUCUAAUUCCAUAAAAGUACUUGGUUUUUACAGUUUAUAAUCUGCAAUCCAUCAAGCGCCAUUUGUAAAGAGCAACU,0.194
ACUCUUGACUCUUUCCAUCCUCUUCCUUUCCCUCUUGAUAUUCAAGGCCAUGAAUCCCAAAAUAACAGUCUUAGUGGGAGGCUAGCAAACAGAGGUGGGUGCCAUCCACCCCAGUGUCUC,0.392
AUCAAAUACUUUGGGGAUAUUAUUAGCGUGGGACAGAGACUGUUGCAAGGAGCUCGGAUCUUAGGGAUUCCUGUUAUCAUAACGGAACAAUACCCCAAAGGACUUGGCAGCACCGUUCAA,0.26
AGGAGGAGGUUAAAGGGUGAGAGUGGGGUGGAAGACUGUGUCAUGGCUCUGGAGACAUUGUUUAGUGUUCUGCUUUCUCUGUGCAGACUGAUGGCCCCUUACACGCCCUUUCUGACUGAG,0.104
CAGCUGCAGACAGAAAAGGAUGAGAAGGAGCUGUAUAAGGUACAUUUGAAGAAUACAGAAAUAGAAAAUACGAAGCUUGUGUCAGAGGUCCAGACUUUAAAGAAUUUAGAUGGGAACAAA,2.9
AACUUCGUGCAUCGGUUUCCCUUUGUAGCUGUUUCAAUUGGCUUUGCUGUAAAUAAAGAGAUGGAGUUUGGAAUUGUGUACAGCUGUGUGGAAGAUAAGAUGUACACCGGCAGGAAAGGG,0.411
UCCCAAAUCCAGCAGCUAGAAGGAGCCAAUUGUUUGUCACUCCACACACAGGGAAGGCGAUAACAUUGUAAAUUGGUUUACAUUUUUUCCCCCUGUGGAUUUUUCUAGAGGUCAUAGUGC,0.32
